Experimental data collected from several papers.
Each numbered part is a random draw from the data of one study; scales do not carry over between parts. Values joined by “and” are separate records of one study, mostly repeats; a detail may differ.
UniProt P35916, sequence (whole entry, looked up): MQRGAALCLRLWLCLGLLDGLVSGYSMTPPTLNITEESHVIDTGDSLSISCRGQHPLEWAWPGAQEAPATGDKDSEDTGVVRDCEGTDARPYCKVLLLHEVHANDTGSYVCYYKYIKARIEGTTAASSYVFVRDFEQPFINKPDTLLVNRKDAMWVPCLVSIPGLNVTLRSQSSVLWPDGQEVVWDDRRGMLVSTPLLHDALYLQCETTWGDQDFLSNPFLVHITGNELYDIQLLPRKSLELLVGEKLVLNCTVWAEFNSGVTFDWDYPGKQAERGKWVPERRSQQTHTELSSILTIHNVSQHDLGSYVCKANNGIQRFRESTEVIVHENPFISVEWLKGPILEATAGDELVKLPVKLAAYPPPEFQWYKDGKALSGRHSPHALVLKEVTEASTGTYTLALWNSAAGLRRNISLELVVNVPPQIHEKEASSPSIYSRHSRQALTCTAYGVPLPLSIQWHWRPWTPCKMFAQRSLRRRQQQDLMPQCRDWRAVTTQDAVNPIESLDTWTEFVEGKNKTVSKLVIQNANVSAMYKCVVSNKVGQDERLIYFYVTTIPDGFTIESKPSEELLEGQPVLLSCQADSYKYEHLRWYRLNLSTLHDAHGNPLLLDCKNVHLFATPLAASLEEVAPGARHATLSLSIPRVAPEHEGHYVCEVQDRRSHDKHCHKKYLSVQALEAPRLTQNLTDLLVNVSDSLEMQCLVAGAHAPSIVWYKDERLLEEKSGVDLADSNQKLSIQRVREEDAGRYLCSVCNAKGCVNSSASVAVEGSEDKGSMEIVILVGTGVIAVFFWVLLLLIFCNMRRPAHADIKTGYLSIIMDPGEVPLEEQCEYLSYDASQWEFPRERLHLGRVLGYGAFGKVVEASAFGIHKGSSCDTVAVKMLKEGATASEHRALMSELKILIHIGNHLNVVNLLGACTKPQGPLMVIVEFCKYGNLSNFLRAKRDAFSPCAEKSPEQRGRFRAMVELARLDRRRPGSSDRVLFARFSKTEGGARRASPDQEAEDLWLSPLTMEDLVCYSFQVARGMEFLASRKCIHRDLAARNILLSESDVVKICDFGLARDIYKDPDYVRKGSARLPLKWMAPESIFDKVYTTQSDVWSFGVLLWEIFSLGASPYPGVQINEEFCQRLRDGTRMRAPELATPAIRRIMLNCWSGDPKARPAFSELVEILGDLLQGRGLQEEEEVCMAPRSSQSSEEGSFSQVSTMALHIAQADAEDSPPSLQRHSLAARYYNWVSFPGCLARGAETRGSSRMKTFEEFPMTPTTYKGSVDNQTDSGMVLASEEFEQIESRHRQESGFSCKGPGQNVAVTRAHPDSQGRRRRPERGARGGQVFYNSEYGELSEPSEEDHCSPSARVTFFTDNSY
UniProt P31749, sequence (whole entry, looked up): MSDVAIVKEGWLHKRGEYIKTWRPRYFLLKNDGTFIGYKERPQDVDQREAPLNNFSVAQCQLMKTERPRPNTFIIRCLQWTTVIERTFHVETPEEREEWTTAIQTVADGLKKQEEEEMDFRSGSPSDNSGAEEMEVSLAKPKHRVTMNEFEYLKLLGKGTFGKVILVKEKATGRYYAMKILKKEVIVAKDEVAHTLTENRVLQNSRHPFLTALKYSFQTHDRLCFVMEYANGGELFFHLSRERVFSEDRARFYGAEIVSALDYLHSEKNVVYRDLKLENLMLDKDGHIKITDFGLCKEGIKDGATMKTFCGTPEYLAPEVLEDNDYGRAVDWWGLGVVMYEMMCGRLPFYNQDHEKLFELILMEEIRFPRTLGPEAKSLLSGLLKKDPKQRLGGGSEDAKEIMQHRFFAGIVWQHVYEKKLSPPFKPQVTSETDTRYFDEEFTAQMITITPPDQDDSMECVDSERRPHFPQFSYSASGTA
UniProt O00506, sequence (whole entry, looked up): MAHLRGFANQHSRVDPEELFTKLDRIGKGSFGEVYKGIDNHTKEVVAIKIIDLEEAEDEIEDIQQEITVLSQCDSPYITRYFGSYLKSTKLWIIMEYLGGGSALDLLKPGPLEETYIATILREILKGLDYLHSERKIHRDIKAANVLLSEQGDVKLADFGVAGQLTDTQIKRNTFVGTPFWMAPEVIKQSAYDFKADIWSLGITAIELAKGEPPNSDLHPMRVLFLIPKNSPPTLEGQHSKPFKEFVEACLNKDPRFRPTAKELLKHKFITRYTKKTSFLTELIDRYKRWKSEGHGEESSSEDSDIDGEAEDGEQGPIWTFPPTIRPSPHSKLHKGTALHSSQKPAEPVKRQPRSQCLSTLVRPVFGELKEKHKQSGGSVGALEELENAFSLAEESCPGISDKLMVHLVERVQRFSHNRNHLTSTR

Study 1
Structure (SMILES): CN(C)CCCn1cc(C2=C(c3c[nH]c4ccccc34)C(=O)NC2=O)c2ccccc21
Read-out: enzyme activity
Mode: inhibitor
Concentration: 0.5 µM
Baseline: control
Measurement: remaining activity
RAC-alpha serine/threonine-protein kinase (AKT1, Homo sapiens, UniProt P31749): 93.5%
Vascular endothelial growth factor receptor 3 (FLT4, Homo sapiens, UniProt P35916): 30.6%
Proto-oncogene tyrosine-protein kinase Src (SRC, Homo sapiens, UniProt P12931): 92.6%
Serine/threonine-protein kinase 25 (STK25, Homo sapiens, UniProt O00506): 69.7%

Study 2
Target: Sal-like protein 4, full length isoform B (SALL4, Homo sapiens, UniProt Q9UJQ4-2, residues 1-616)
Technique: universal PBM
Form: double-stranded DNA, one strand shown
Medium: in vitro
Concentration: not given
Setting: 8-mer, flanks averaged, mean of replicates
Direction: higher = stronger binding
Measurement: E-score
Residues (chain): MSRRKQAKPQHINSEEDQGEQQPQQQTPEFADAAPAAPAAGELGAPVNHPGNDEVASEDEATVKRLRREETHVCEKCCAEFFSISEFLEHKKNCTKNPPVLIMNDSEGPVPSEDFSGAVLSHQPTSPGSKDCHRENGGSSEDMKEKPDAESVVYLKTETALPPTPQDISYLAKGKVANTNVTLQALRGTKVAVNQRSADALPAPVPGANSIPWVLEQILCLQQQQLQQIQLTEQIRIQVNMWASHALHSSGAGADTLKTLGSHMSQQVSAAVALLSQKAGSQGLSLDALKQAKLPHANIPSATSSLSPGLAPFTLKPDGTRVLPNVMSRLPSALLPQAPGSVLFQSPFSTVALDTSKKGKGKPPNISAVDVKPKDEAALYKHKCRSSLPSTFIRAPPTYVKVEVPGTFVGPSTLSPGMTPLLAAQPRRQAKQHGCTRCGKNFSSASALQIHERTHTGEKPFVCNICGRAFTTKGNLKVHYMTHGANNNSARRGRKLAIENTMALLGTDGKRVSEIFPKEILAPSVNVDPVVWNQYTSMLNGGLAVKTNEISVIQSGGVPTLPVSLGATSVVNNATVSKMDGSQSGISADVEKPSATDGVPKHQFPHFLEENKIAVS
CGTATTAG: 0.183
CCACGGCA: -0.206
TCAAGCCA: -0.0805
GACAAGAC: -0.0838
GTGCTCCA: -0.179
GGACCGGA: -0.364
GTTGTCCA: 0.0283
CACGAACC: -0.206

Study 3
Cell line: normal-adjacent epithelial organoid
Read-out: cell viability
Technique: CellTiter-Glo
Host: human
Medium: patient-derived organoid
Concentration: 1 µM
Baseline: DMSO
Measurement: viability
CC1=C(C#N)C(c2ccc3c(c2)c(NC(=O)c2ccccc2C)nn3C)C(C#N)=C(C)N1: 80.9%
C[C@@H](NC(=O)Nc1cc2[nH]ncc2c(CO)n1)c1ccccc1: 66.1% and 62%
CNC(=O)c1cc(C(=O)N[C@H]2[C@@H]3COC[C@@H]32)cc2c1O[C@H](CF)[C@H]2c1ccccc1: 95.5%
N#CC1(c2ccccn2)CCN(Cc2cc(C(=O)N3CCCC3)c(=O)n3ccccc23)CC1: 136%
CN(C)[C@@H]1CCN(c2cc(-c3ccccc3)nc3ccnn23)C1: 118%
Nc1nc(NCc2ccccc2)nc(-c2cccc(CO)c2)n1: 102%
CN1CCN(Cc2ccc(Nc3ncc(Cl)c(Nc4ccccc4S(=O)(=O)N(C)C)n3)cc2)CC1: 1.8% and 1.6%

Study 4
Target: Phosphate system positive regulatory protein PHO4, full length, GST-tagged (PHO4, Saccharomyces cerevisiae, UniProt P07270, residues 1-312)
Technique: competition protein-binding microarray
Form: double-stranded DNA, one strand shown
Medium: in vitro
Concentration: 2 µM
Setting: whole 60-bp probe, lowest competitor level
With: Cbf1 competitor, 0.05 µM
Direction: higher = stronger binding
Measurement: fluorescence intensity
Shared flanks, not repeated: … GTCTTGATTCGCTTGACGCTGCTG
Target sequence (chain): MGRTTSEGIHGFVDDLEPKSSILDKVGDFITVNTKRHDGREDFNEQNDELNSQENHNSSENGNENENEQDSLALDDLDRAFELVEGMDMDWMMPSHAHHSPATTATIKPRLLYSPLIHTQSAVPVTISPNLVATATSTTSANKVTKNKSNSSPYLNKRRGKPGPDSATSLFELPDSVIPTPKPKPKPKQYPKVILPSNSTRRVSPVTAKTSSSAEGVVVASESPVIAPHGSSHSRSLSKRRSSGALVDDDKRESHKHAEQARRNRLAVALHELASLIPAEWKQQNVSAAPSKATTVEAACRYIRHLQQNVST
CTTCTGTAAATTTTTCACGTGTGGTGAAGCGCCCCG: 12200 a.u.
AGTATAGGGCATTTAAAGGTGTGCCAGCAGCGGGTT: 6570 a.u.
CGAATTACTTGACGTATCGTGCCGATCCGTTGATGC: 7130 a.u.
TACCCTCTCAGTCCGCACGTGCGGAGGGATCAGCCT: 15400 a.u.
AAAGCGGTAATTTTTCACGTGTACTCACATATCTAT: 13400 a.u.
AAATTACTAAGTTGTCACGTCACTTACCCCGTATGA: 4630 a.u.
CTTTCCCGATCTTGTCACTCTACTTTAGCACATTTG: 3760 a.u.
AATATCCTCAACCTACACGTCTTCACCATCGGCACC: 5930 a.u.

For quick reference, copied from above (study 1):
Vascular endothelial growth factor receptor 3 (FLT4, Homo sapiens, UniProt P35916): 30.6%
Proto-oncogene tyrosine-protein kinase Src (SRC, Homo sapiens, UniProt P12931): 92.6%
RAC-alpha serine/threonine-protein kinase (AKT1, Homo sapiens, UniProt P31749): 93.5%
Serine/threonine-protein kinase 25 (STK25, Homo sapiens, UniProt O00506): 69.7%
